Results pooled from the literature.
Lines come from different studies, so protocols differ.
FGFR3 isoform IIIc: FGFR3 isoform IIIc (unknown, UniProt Q61851)
Chain of UniProt Q61851 (whole entry, looked up): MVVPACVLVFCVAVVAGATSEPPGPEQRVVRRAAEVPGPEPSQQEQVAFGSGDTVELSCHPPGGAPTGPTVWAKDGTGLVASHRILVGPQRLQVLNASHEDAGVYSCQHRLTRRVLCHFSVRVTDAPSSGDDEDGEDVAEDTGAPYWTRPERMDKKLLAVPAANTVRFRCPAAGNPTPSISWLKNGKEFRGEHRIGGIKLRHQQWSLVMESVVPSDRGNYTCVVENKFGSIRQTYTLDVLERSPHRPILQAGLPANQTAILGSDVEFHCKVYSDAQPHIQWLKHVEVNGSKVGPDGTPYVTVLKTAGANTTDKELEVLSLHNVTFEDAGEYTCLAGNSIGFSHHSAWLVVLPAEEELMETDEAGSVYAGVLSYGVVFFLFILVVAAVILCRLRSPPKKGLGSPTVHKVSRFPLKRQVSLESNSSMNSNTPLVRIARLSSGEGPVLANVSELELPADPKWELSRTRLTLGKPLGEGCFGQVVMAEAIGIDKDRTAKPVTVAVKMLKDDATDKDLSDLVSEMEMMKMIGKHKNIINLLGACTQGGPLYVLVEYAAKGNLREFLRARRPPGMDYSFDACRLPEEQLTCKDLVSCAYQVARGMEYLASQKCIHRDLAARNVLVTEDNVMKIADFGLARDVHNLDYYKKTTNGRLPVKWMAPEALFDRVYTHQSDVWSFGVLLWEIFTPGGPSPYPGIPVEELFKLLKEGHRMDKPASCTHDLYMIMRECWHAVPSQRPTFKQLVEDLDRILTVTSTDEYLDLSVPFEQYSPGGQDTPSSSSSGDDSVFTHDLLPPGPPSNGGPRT
B1: GLI2 zinc finger , SNAP fusion 418-604 (Homo sapiens, UniProt P10070); Alexa-647 label; sequence looked up; chain KEDLDRDDCKQEAEVVIYETNCHWEDCTKEYDTQEQLVHHINNEHIHGEKKEFVCRWQACTREQKPFKAQYMLVVHMRRHTGEKPHKCTFEGCSKAYSRLENLKTHLRSHTGEKPYVCEHEGCNKAFSNASDRAKHQNRTHSNEKPYICKIPGCTKRYTDPSSLRKHVKTVHGPDAHVTKKQRNDVH
B2: UGT1A9 (Homo sapiens, UniProt O60656); chain GKLLVVPMDGSHWFTMRSVVEKLILRGHEVVVVMPEVSWQLGRSLNCTVKTYSTSYTLEDLDREFKAFAHAQWKAQVRSIYSLLMGSYNDIFDLFFSNCRSLFKDKKLVEYLKESSFDAVFLDPFDNCGLIVAKYFSLPSVVFARGILCHYLEEGAQCPAPLSYVPRILLGFSDAMTFKERVRNHIMHLEEHLLCHRFFKNALEIASEILQTPVTEYDLYSHTSIWLLRTDFVLDYPKPVMPNMIFIGGINCHQGKPLPMEFEAYINASGEHGIVVFSLGSMVSEIPEKKAMAIADALGKIPQTVLWRYTGTRPSNLANNTILVKWLPQNDLLGHPMTRAFITHAGSHGVYESICNGVPMVMMPLFGDQMDNAKRMETKGAGVTLNVLEMTSEDLENALKAVINDKSYKENIMRLSSLHKDRPVEPLDLAVFWVEFVMRHKGAPHLRPAAHDLTWYQYHSLDVIGFLLAVVLTVAFITFKCCAYGYRKCLGKKGRVKKAHKSKTH
B3: TIMP3 24-144 (Homo sapiens, UniProt P35625); sequence looked up; chain CTCSPSHPQDAFCNSDIVIRAKVVGKKLVKEGPFGTLVYTIKQMKMYRGFTKMPHVQYIHTEASESLCGLKLEVNKYQYLLTGRVYDGKMYTGLCNFVERWDQLTLSQRKGLNYRYHLGCN
B4: JAK1 35-559 (Homo sapiens, UniProt P23458); sequence looked up; chain GVEVIFYLSDREPLRLGSGEYTAEELCIRAAQACRISPLCHNLFALYDENTKLWYAPNRTITVDDKMSLRLHYRMRFYFTNWHGTNDNEQSVWRHSPKKQKNGYEKKKIPDATPLLDASSLEYLFAQGQYDLVKCLAPIRDPKTEQDGHDIENECLGMAVLAISHYAMMKKMQLPELPKDISYKRYIPETLNKSIRQRNLLTRMRINNVFKDFLKEFNNKTICDSSVSTHDLKVKYLATLETLTKHYGAEIFETSMLLISSENEMNWFHSNDGGNVLYYEVMVTGNLGIQWRHKPNVVSVEKEKNKLKRKKLENKHKKDEEKNKIREEWNNFSYFPEITHIVIKESVVSINKQDNKKMELKLSSHEEALSFVSLVDGYFRLTADAHHYLCTDVAPPLIVHNIQNGCHGPICTEYAINKLRQEGSEEGMYVLRWSCTDFDNILMTVTCFEKSEQVQGAQKQFKNFQIEVQKGRYSLHGSDRSFPSLGDLMSHLKKQILRTDNISFMLKRCCQPKPREISNLLVATK
B5: erenumab; V domains shown; sequence looked up; VH QVQLVESGGGVVQPGRSLRLSCAASGFTFSSFGMHWVRQAPGKGLEWVAVISFDGSIKYSVDSVKGRFTISRDNSKNTLFLQMNSLRAEDTAVYYCARDRLNYYDSSGYYHYKYYGMAVWGQGTTVTVSS; VL QSVLTQPPSVSAAPGQKVTISCSGSSSNIGNNYVSWYQQLPGTAPKLLIYDNNKRPSGIPDRFSGSKSGTSTTLGITGLQTGDEADYYCGTWDSRLSAVVFGGGTKLTVL
Chain of UniProt P55075 (whole entry, looked up): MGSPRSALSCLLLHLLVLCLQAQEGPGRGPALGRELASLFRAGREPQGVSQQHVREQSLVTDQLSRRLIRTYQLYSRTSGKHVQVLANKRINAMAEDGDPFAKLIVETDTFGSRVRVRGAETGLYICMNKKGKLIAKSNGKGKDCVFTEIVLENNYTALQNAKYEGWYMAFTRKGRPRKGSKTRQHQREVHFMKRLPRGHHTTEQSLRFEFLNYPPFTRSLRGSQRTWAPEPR
Chain of UniProt P70618 (whole entry, unmodified, looked up): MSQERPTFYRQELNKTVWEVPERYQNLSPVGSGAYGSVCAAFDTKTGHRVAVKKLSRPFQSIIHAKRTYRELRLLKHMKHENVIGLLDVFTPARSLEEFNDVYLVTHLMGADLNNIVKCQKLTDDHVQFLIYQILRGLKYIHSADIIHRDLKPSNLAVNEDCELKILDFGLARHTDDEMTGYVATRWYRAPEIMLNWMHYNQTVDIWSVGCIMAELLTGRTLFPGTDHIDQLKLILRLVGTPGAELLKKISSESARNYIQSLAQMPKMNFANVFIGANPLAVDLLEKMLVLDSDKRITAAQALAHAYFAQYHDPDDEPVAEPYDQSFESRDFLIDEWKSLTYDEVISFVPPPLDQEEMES
Chain of UniProt P35555 (whole entry, looked up): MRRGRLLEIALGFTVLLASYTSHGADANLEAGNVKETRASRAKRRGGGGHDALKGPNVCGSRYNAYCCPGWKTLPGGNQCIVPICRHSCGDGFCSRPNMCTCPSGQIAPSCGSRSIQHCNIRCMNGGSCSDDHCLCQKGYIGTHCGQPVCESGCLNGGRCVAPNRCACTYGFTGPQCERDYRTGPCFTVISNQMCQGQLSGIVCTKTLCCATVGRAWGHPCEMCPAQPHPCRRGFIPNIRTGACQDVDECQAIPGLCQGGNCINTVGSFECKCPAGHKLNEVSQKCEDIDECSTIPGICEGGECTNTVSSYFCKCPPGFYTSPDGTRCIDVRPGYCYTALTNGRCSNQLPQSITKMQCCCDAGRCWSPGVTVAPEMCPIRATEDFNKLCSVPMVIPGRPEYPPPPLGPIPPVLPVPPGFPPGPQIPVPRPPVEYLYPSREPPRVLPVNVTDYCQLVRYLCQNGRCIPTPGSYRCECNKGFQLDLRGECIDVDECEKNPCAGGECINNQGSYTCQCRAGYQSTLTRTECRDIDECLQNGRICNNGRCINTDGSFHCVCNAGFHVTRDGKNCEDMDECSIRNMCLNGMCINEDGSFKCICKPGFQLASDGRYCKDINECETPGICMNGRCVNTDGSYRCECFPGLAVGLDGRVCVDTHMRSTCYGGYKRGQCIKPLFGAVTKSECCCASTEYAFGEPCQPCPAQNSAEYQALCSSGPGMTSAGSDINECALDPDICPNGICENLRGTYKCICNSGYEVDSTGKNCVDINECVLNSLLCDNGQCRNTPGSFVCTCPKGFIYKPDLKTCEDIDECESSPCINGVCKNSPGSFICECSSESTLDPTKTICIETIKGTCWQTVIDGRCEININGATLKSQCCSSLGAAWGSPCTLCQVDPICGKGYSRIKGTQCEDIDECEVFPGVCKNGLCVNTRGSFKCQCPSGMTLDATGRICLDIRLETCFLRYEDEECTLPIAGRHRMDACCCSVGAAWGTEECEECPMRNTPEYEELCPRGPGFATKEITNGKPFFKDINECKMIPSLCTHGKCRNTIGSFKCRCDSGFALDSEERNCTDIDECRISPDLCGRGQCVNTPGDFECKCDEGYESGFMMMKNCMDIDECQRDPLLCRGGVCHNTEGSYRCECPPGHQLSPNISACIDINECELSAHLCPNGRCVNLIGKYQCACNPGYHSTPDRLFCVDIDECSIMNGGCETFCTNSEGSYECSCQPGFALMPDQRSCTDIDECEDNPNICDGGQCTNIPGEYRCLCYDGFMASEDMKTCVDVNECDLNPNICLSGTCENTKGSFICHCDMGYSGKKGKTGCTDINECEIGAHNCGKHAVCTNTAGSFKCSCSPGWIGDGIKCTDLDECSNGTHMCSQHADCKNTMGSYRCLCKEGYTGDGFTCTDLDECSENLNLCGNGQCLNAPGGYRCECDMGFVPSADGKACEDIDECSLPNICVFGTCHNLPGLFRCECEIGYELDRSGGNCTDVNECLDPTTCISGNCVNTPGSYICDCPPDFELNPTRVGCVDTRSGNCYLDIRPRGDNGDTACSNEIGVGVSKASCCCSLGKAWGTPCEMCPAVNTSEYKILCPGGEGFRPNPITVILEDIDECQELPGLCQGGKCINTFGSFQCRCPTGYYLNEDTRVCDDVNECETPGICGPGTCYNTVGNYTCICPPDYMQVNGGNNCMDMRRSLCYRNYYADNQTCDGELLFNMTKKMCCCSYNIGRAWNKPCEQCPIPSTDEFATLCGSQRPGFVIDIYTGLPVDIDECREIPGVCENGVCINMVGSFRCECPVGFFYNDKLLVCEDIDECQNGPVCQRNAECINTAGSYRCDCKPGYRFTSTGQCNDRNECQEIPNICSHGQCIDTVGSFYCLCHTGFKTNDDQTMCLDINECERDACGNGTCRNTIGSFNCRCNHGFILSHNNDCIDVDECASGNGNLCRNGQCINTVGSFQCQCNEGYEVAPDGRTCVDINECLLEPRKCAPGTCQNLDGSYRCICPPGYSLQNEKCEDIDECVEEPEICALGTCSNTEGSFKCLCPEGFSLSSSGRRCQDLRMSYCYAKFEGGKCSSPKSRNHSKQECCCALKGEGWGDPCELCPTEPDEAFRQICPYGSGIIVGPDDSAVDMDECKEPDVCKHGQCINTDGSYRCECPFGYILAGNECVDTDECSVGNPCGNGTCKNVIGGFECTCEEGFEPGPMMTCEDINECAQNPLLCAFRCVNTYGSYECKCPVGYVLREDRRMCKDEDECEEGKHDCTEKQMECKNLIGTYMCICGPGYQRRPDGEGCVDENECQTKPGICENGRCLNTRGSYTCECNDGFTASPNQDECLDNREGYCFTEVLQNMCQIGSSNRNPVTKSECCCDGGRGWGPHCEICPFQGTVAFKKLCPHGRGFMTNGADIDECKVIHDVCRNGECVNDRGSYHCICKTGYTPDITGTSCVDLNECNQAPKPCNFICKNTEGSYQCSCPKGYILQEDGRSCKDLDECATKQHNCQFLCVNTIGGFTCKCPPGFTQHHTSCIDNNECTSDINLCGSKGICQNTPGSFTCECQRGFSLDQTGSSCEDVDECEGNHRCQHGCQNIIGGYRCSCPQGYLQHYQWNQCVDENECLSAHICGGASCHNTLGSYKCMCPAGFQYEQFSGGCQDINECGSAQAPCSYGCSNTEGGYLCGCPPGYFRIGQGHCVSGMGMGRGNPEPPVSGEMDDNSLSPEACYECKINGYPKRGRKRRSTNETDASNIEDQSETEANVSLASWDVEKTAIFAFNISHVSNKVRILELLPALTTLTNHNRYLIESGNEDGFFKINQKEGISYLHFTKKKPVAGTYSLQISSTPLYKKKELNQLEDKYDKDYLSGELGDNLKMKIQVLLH
Chain of UniProt O75173 (whole entry, unmodified, looked up): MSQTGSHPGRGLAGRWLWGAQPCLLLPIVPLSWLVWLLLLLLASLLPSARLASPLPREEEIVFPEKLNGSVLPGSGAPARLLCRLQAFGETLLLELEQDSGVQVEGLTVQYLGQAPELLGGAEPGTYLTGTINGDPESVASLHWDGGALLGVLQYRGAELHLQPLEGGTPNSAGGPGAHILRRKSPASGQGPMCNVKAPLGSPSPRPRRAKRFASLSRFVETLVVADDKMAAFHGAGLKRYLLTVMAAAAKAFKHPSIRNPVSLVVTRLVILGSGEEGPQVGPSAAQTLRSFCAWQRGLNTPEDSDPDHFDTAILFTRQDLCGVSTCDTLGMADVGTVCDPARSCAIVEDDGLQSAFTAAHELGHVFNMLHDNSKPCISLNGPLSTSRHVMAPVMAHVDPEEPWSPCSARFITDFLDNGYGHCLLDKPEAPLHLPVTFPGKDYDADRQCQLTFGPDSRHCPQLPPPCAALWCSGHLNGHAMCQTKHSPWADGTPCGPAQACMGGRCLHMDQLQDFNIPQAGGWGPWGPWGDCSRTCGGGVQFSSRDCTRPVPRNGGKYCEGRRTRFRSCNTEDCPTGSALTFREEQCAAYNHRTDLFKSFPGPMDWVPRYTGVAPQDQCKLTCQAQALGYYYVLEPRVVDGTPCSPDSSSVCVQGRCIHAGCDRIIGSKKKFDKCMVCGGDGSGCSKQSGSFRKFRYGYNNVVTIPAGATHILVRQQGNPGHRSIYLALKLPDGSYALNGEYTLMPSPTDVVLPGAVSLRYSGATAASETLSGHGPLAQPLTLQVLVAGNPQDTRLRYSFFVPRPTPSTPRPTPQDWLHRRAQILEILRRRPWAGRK

Molecule	target or system	assay	test system	conditions	how to read	quantity	result
ITGAV/ITGB3 mature heterodimer (Homo sapiens)	FBN1 1527-1647 (Homo sapiens, UniProt P35555)	cell spreading	BHK	1 µM	higher = more spread cells	cell spreading	20%
FGF8b (Homo sapiens)	FGFR3 isoform IIIc	cell proliferation, MTT	BaF3-FGFR3c	20 nM, 48 h, with: chondroitin sulfate A 4.9 µg/mL	reference: FGF 1 with heparin, higher = more proliferation	cell proliferation	29%
Ac-SQHNRQLLRGALRRWK-NH2 (SFI1 repeat 18, 677-692 (Homo sapiens); N-acetyl; C-terminal amide)	CETN1, phosphothreonine (Homo sapiens, UniProt Q12798)	ITC	peptide			molecule per partner	0.57
B1	KIF7 1-543 (Homo sapiens, UniProt Q2M1P5)	TIRF microscopy	immobilised microtubules		reference: without Kif7-DM, higher = more recruitment	relative recruitment	3 fold
B2 (UGT1A9)	CCOC(=O)c1ccc(O)cc1	steady-state kinetics		pH 7.4, 37 °C		Vmax/Km	41 µL/min/mg
ADM2 fragment (Homo sapiens)	CALCRL/RAMP2 whole, on cells (Homo sapiens)	cAMP, antagonist, CAMYEL BRET	COS-7			cAMP decay half-life	2.68 min
FGF8 (Homo sapiens, UniProt P55075)	FGFR3 isoform IIIc	cell proliferation, MTT	BaF3-FGFR3c	20 nM, 48 h, with: heparan sulfate 4.9 µg/mL	reference: FGF 1 with heparin, higher = more proliferation	cell proliferation	103%
Ac-ARPCG-NH2 (PTX3 100-104 A104G, N-acetyl/C-terminal amide (Homo sapiens); N-acetyl/C-terminal amide)	FGF2 18 kD form (Homo sapiens)	cell proliferation, antagonist	peptide, GM7373	3-1000 µM, with: FGF2 0.55 nM		ID50	> 1000 µM
YAGRRKERPTSLNVFP (MAPK8IP3 D-site peptide (Homo sapiens))	Mapk14 N159K/E160S/E163T, pT180, pY182 (Rattus norvegicus, UniProt P70618)	kinase activity, inhibitor, competitive kinase inhibition assay	peptide	with: ATP 1 mM		IC50	> 100 µM
B3 (TIMP3 24-144)	ADAMTS4 213-519 (Homo sapiens, UniProt O75173)	inhibitor, steady-state kinetics		1 h, 37 °C, apparent		Ki	0.00055 µM
B4 (JAK1 35-559)	IFNLR1 250-270 W257A (Homo sapiens, UniProt Q8IU57)	BLI			reference: wild type	fold reduction in binding	3 fold
B5 (erenumab)	CALCRL/RAMP3 on cells (Homo sapiens)	cAMP production, antagonist	antibody	weak antagonist, with: adrenomedullin		pA2	6.01
anti-CTLA-4 IgG1 Fc S267E/L328F (Homo sapiens)	FCGR2B (Homo sapiens, UniProt P31994)	IL-2 luciferase reporter, reporter assay	Jurkat with Raji	8 hr, endogenous FcγRIIB	reference: parental hIgG1 mAb, higher = more potent	potency	7 fold

For quick reference, copied from above:
Molecule	target or system	assay	test system	conditions	how to read	quantity	result
B4 (JAK1 35-559)	IFNLR1 250-270 W257A (Homo sapiens, UniProt Q8IU57)	BLI			reference: wild type	fold reduction in binding	3 fold
B5 (erenumab)	CALCRL/RAMP3 on cells (Homo sapiens)	cAMP production, antagonist	antibody	weak antagonist, with: adrenomedullin		pA2	6.01
